Results pooled from the literature.
Every numbered part comes from another study and shows a few of its results, in no order.
UniProt P51812, sequence (whole entry, looked up): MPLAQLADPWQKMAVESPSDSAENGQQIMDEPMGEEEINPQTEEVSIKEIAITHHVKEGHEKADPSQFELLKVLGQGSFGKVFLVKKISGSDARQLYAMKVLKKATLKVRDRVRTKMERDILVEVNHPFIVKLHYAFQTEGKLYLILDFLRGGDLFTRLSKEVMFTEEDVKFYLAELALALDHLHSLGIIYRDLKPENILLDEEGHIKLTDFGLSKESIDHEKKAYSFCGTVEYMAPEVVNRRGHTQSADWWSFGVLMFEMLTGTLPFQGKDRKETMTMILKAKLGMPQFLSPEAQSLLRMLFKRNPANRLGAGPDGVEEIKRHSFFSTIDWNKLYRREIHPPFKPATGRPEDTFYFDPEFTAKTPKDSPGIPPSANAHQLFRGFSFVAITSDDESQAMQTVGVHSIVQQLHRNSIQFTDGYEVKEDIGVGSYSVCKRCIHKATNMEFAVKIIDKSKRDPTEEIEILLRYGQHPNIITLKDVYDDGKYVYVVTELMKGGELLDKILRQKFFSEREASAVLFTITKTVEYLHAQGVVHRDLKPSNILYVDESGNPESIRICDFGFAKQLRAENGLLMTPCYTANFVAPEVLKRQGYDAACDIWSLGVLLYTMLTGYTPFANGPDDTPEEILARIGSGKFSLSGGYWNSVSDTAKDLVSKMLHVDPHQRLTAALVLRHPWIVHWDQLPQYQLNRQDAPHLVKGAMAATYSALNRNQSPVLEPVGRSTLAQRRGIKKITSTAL
UniProt Q9HBY8, sequence (whole entry, looked up): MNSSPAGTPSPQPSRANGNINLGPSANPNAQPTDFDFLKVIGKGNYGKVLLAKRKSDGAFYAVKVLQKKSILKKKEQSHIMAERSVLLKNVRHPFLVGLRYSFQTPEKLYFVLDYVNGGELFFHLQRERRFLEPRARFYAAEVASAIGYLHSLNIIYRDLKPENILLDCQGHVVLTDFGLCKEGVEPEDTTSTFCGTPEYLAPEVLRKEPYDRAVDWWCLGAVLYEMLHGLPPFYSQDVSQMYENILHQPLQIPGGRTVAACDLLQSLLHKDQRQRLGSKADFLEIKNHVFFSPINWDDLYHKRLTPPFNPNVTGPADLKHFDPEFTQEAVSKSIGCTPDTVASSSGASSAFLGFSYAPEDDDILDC
UniProt P61075, sequence (whole entry, looked up): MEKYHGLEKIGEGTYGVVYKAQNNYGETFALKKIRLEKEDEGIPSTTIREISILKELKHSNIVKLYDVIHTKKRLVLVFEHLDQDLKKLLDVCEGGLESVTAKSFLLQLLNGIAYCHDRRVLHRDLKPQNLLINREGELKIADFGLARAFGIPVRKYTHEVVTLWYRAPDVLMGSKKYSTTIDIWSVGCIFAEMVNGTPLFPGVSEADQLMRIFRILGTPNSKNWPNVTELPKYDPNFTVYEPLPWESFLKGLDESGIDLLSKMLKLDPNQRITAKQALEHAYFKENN
UniProt P42680, sequence (whole entry, looked up): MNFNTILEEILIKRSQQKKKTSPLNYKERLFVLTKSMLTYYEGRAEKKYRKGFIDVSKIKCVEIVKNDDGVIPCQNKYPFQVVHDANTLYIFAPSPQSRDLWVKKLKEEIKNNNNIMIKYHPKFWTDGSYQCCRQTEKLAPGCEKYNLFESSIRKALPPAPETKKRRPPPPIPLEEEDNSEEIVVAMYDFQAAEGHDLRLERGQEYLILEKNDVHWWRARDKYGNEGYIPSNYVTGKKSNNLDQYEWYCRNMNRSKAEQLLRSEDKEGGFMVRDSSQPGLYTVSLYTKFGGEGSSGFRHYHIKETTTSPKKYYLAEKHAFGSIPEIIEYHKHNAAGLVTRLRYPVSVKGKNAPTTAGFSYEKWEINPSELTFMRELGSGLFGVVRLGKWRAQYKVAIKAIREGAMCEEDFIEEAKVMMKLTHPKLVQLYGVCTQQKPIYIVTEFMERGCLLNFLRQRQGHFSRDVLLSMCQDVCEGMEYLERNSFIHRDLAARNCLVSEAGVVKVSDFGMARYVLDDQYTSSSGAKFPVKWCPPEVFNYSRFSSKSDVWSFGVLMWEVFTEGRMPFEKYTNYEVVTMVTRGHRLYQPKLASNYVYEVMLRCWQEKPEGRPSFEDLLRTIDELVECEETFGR
UniProt P29317, sequence (whole entry, looked up): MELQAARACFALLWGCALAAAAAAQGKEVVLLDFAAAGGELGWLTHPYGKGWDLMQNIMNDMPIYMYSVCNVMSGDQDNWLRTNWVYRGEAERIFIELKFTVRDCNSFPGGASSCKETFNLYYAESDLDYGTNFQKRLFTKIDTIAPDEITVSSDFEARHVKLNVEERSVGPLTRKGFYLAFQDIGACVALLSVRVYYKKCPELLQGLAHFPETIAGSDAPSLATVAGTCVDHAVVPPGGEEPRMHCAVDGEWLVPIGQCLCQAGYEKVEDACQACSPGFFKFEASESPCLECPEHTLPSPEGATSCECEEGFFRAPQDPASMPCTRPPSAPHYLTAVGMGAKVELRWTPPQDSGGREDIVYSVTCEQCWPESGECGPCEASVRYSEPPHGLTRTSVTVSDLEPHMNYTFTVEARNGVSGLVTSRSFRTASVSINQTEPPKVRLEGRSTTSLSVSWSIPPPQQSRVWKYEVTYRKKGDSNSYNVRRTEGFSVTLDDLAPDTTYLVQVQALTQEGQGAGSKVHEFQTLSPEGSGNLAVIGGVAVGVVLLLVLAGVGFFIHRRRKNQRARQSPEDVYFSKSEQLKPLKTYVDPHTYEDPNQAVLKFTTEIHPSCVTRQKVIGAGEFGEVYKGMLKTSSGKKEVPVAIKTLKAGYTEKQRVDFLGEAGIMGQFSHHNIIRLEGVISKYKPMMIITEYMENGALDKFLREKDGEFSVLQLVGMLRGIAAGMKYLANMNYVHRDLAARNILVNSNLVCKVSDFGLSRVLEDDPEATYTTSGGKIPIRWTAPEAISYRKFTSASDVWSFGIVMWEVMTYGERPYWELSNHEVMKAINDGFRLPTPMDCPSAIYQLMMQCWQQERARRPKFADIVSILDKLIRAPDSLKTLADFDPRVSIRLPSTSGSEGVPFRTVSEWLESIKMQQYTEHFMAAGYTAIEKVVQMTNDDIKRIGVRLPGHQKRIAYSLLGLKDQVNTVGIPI

Series 1 — observed: enzyme activity; action: inhibitor; concentration: 0.5 µM; baseline: control
Structure (SMILES): COc1ccc2c(c[n+](C)c3c4cc5c(cc4ccc23)OCO5)c1OC
target	remaining activity [%]
Tyrosine-protein kinase Yes (YES1, Homo sapiens, UniProt P07947)	93.8
Tyrosine-protein kinase Fes/Fps (FES, Homo sapiens, UniProt P07332)	108
Ephrin type-A receptor 2 (EPHA2, Homo sapiens, UniProt P29317)	97.3
Tyrosine-protein kinase JAK2 (JAK2, Homo sapiens, UniProt O60674)	102
Dual specificity protein kinase CLK2 (CLK2, Homo sapiens, UniProt P49760)	90.6
Casein kinase I isoform epsilon (CSNK1E, Homo sapiens, UniProt P49674)	90.7
Tyrosine-protein kinase Tec (TEC, Homo sapiens, UniProt P42680)	116
Serine/threonine-protein kinase PAK 6 (PAK6, Homo sapiens, UniProt Q9NQU5)	96.1
Receptor tyrosine-protein kinase erbB-2 (ERBB2, Homo sapiens, UniProt P04626)	101
Serine/threonine-protein kinase PAK 4 (PAK4, Homo sapiens, UniProt O96013)	99.5
Casein kinase I isoform delta (CSNK1D, Homo sapiens, UniProt P48730)	92.9
Serine/threonine-protein kinase SIK2 (SIK2, Homo sapiens, UniProt Q9H0K1)	95.5
Ribosomal protein S6 kinase alpha-3 (RPS6KA3, Homo sapiens, UniProt P51812)	94.6
Tyrosine-protein kinase JAK1 (JAK1, Homo sapiens, UniProt P23458)	88.5
Serine/threonine-protein kinase MARK1 (MARK1, Homo sapiens, UniProt Q9P0L2)	91.4
Protein kinase C theta type (PRKCQ, Homo sapiens, UniProt Q04759)	99.9
Protein kinase C zeta type (PRKCZ, Homo sapiens, UniProt Q05513)	97.7
Activin receptor type-1-like (ACVRL1, Homo sapiens, UniProt P37023)	99.2
SRSF protein kinase 1 (SRPK1, Homo sapiens, UniProt Q96SB4)	95.3
Serine/threonine-protein kinase Sgk2 (SGK2, Homo sapiens, UniProt Q9HBY8)	99.1
Cyclin-dependent kinase 2, with cyclin E (CDK2, Homo sapiens, UniProt P24941)	88.9
Maternal embryonic leucine zipper kinase (MELK, Homo sapiens, UniProt Q14680)	89.6
Dual specificity tyrosine-phosphorylation-regulated kinase 1A (DYRK1A, Homo sapiens, UniProt Q13627)	103
Ribosomal protein S6 kinase beta-2 (RPS6KB2, Homo sapiens, UniProt Q9UBS0)	99.6
Insulin-like growth factor 1 receptor (IGF1R, Homo sapiens, UniProt P08069)	93.3

Series 2 — cell line: HEK-293T-ACE2-TMPRSS2; technique: cell count; concentration: concentration not given
SMILES	viability [%]
CCOC(=O)c1c(CN(CC)CC)n(-c2ccccc2)c2ccc(O)cc12	73
Cc1nn(C)c(C)c1CNS(=O)(=O)c1ccc(C(C)C)cc1	74
Cc1ccc(NC(=O)c2nc(S(=O)(=O)Cc3ccccc3)ncc2Cl)cc1C	84
Nc1nc(NCCNc2ccccc2)cc(N2CCOCC2)n1	93
c1ccc(-c2ncn(CCc3c[nH]cn3)c2-c2ccncc2)cc1	90
CSc1nnc(Sc2ncc([N+](=O)[O-])s2)s1	72
O=S(=O)(Cc1ccccc1F)c1oc(-c2ccc(F)cc2)nc1S(=O)(=O)c1ccccc1	98
CO[C@@H]1[C@@H](O[C@@H]2O[C@H](C)[C@@H](O[C@H]3C[C@@](C)(O)[C@@H](O)[C@H](C)O3)[C@H](N(C)C)[C@H]2O)[C@@H](CC=O)C[C@@H](C)[C@@H](O[C@H]2CC[C@H](N(C)C)[C@@H](C)O2)/C=C/C=C/C[C@@H](C)OC(=O)C[C@H]1O	77
COc1ccc(NC(=O)c2nc(S(=O)(=O)Cc3ccccc3C)ncc2Cl)cc1	72
CS(=O)(=O)c1ncc(Cl)c(C(=O)Nc2cccc(I)c2)n1	68
CCc1ccc(S(=O)(=O)N2Cc3nn4c(C)c(C)c(C)nc4c3C2)cc1	108
CN(CC1COc2ccccc2O1)c1ccc(-c2nc(C3CC3)no2)cn1 (stereo not shown)	109

Series 3 — action: inhibitor; concentration: 10 µM; baseline: control
Target: Diamine acetyltransferase 1 (Homo sapiens, UniProt P21673)
Target sequence (P21673 1-171): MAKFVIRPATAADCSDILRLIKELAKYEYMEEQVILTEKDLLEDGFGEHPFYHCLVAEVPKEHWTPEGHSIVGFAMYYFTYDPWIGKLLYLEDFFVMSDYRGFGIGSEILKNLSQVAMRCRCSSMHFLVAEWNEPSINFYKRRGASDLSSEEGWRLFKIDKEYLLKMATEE
Compound	remaining activity
CC1(C)[C@H](C(=O)O[C@H](C#N)c2cccc(Oc3ccccc3)c2)[C@@H]1C=C(Br)Br	101%
CC(C)=CCOc1c2occc2cc2ccc(=O)oc12	95.3%
CC[C@H]1CN2CCc3c([nH]c4ccccc34)[C@H]2C[C@@H]1/C(=C\OC)C(=O)OC	90.5%
CC1(C)OC1COc1c2occc2cc2ccc(=O)oc12 (stereo not shown)	103%
COC(=O)C1=CCCN(C)C1	105%
Cc1c([C@H](C)[C@@H]2NC[C@@H](C)C[C@H]2O)ccc2c1C[C@H]1[C@H]2CC=C2C[C@@H](O)CC[C@@]21C	113%
O=Cc1ccccc1	85.4%

Further values, each from its own experiment
pknB: Serine/threonine-protein kinase PknB (pknB, Mycobacterium tuberculosis, UniProt P9WI81)
UniProt P9WI81, sequence (whole entry, looked up): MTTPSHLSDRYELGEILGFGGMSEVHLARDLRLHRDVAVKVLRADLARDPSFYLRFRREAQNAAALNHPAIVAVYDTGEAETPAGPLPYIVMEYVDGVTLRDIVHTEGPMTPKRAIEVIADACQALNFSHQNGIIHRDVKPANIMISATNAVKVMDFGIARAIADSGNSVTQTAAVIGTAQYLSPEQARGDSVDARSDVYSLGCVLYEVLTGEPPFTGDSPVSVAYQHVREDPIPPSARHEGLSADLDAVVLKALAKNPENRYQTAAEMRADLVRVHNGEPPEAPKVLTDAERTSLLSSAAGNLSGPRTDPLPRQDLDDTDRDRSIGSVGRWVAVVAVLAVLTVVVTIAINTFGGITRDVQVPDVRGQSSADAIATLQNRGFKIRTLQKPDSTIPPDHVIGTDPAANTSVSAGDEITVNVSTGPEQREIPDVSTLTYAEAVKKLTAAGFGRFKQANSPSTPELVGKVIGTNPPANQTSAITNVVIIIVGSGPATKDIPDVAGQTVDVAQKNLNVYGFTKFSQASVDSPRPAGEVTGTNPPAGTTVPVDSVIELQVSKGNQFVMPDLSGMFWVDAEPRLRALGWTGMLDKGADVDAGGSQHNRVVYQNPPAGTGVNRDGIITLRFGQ
Structure (SMILES)	target or system	assay	conditions	quantity	value
O=C1NC(c2ccccn2)Sc2ccccc21 (stereo not shown)	pknB	cell-free assay, competition with immobilised ligand	1 µM	remaining binding	77%
N[C@@H](Cc1ccc(N(CCCl)CCCl)cc1)C(=O)O	HaCaT		100 µM, 18 h	viability	83.6%
CC(C)CC(=O)N1CCc2nc(-c3ccc(Br)cc3)nc(N(C)Cc3ccccc3)c2C1	pknB	cell-free assay, competition with immobilised ligand	0.1 µM	remaining binding	97%
c1ccc(NNc2ccccc2)cc1	HaCaT		100 µM, 18 h	viability	59%
CNC(=O)Nc1ccc2c(c1)CC[C@@]21OC(=O)N(CC(=O)N(Cc2ccc(F)cc2)[C@@H](C)C(F)(F)F)C1=O	Cyclin-dependent kinase 2 homolog (CRK2, Plasmodium falciparum, UniProt P61075)	cell-free assay, competition with immobilised ligand	1 µM	remaining binding	91%
CCC(=O)O[C@H]1CC[C@H]2[C@@H]3CCC4=CC(=O)CC[C@]4(C)[C@H]3CC[C@]12C	HaCaT		100 µM, 18 h	viability	46.8%
O=C(NS(=O)(=O)c1ccc(NCC2CCOCC2)c([N+](=O)[O-])c1)c1ccc(N2CCN(Cc3ccc(C(F)(F)F)cc3-c3ccc(Cl)cc3)CC2)cc1Oc1cnc2[nH]ccc2c1	Sodium-dependent dopamine transporter (SLC6A3, Homo sapiens, UniProt Q01959)	ligand displacement	10 µM	inhibition	-43.4%
O=P1(N(CCCl)CCCl)NCCCO1 (stereo not shown)	HaCaT		100 µM, 60 h	viability	135%

Some of these lines once more (series 1):
target	remaining activity [%]
Casein kinase I isoform epsilon (CSNK1E, Homo sapiens, UniProt P49674)	90.7
Tyrosine-protein kinase Tec (TEC, Homo sapiens, UniProt P42680)	116
Serine/threonine-protein kinase PAK 6 (PAK6, Homo sapiens, UniProt Q9NQU5)	96.1
Receptor tyrosine-protein kinase erbB-2 (ERBB2, Homo sapiens, UniProt P04626)	101
Serine/threonine-protein kinase PAK 4 (PAK4, Homo sapiens, UniProt O96013)	99.5
Casein kinase I isoform delta (CSNK1D, Homo sapiens, UniProt P48730)	92.9
